Measurements collected from several papers.
Numbered parts are unrelated; each lists some results of a single study. Positions count from the first letter of the parent shown.

Block 1
Target: Ras GTPase-activating protein-binding protein 1, full length (G3BP1, Homo sapiens, UniProt Q13283)
Chain of UniProt Q13283 (whole entry, looked up): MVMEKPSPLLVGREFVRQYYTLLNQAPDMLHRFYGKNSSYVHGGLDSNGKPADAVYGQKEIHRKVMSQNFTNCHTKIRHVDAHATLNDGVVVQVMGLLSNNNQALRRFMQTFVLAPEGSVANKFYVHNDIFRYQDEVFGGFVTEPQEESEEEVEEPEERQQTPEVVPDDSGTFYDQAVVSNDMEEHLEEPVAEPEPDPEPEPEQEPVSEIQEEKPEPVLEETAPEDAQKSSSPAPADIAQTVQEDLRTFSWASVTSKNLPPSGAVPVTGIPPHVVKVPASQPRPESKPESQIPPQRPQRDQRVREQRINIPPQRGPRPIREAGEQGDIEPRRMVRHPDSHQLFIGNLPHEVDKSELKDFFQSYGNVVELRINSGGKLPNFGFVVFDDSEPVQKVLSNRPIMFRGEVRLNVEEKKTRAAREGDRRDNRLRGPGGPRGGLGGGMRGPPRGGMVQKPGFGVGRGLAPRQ
Method: RNA Bind-n-Seq
Molecule type: RNA
Matrix: in vitro
Concentration: 200 nM
Setting: whole 134-nt RNA, ends assumed
Together with: 150 mM KCl
Baseline: input library
Reading: higher = stronger binding
Oligonucleotide	log2 enrichment
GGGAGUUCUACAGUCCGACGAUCAAGUCCUGUGCUACACAUCGUAUGUACCGAAUCGGGGUUUUGGUUUUGGGUUUUGGGAAAGUAUUAUGUUACGCCGUUCGGAUCUGCACUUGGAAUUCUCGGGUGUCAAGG	-0.808
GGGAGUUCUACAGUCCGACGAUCUGGGAGGUGGAUUUUGUUUAUUUUUUUAGCUCAUUUCCAAGGGUGGGAAUUUUUUUUUAAUAUGUGUCAUGAAUAAAGUUGUUUUUGAAAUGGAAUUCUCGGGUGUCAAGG	-0.187
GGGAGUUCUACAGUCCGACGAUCUGGCACUGGUGGCAUGCGGGGAGGAAGAGGUGGCCUCAUGGAUCGUGGUGGUCCCGGUGGAAUGUUCAGAGGUGGCCGUGGUGGAGACAGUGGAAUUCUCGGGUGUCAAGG	0.481
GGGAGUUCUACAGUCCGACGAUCAGUCCUGUGCUACACAUCGUAUGUACCGAAUCAAAUUUAAACCCCCCCAAACCCAAAAAAGUAUUAUGUUACGCCGUUCGGAUCUGCACUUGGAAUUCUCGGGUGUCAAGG	-0.293
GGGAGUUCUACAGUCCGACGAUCACCAUGCGGGUGGGCAUCUUUGGGAAGUGGGGCAAGGGGGGGAUAGGGAGGGGGGUAACACUUUGGGAACAGGUGGUCCCAGGUCGUUUCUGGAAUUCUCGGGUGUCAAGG	1.29
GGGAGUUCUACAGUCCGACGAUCACCAUGCAGGUGGGCAUCUUUGGGAAGUGGGGCAAGGGGGGGAUAGGGAGGGGGGUAACACCUUGGGAACAGGUGGUCCCAGGUCGUUUCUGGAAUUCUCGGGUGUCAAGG	1.11
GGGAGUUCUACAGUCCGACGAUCUCAUUCUAUACAGCCUUUUGUUUCAUUAGGAUCAGGCAGCUAGAGACAUGAAGAGGCUUGAAGAAAAGGACAAGGAAAGAAAAAACGUAAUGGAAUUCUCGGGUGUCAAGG	-1.69
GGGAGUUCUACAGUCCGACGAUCUCCUGUGCUACACAUCGUAUGUACCGAAUCGGAAAAAAGGGAAAAAAGGGGAAAAAAGGAAAGUAUUAUGUUACGCCGUUCGGAUCUGCAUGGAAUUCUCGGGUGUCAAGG	-0.884
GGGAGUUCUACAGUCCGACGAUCAGUCCUGUGCUACACAUCGUAUGUACCGAAUCGGAAAAGGGGAAAAGGGAAAAGGGGAAAGUAUUAUGUUACGCCGUUCGGAUCUGCACUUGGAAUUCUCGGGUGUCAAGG	-0.165

Block 2
Target: CCNA1, cyclin fold, Cln2 fusion (human)
Method: yeast growth competition, sequencing
Matrix: yeast
Setting: weak parent motif
Baseline: not given
Reading: higher = stronger binding
Starting sequence: PKN2 docking peptide (human); VSAVRKLDFSDTM
Change	normalised enrichment score
VSAVRKLDNSDTM [F9N]	0.025
VSAVRKLQFSDTM [D8Q]	0.458
VSAVRKLDFSITM [D11I]	0.542
VSAVPKLDFSDTM [R5P]	-0.0783
VSAVRKSDFSDTM [L7S]	0.145
VNAVRKLDFSDTM [S2N]	1.22
VSNVRKLDFSDTM [A3N]	-0.138
VSAVRKDDFSDTM [L7D]	0.0253
VPAVRKLDFSDTM [S2P]	0.493
VSAVRKLDWSDTM [F9W]	0.577
VSAVRWLDFSDTM [K6W]	0.284
VSAVRKLSFSDTM [D8S]	0.404
VSAVRKLDFTDTM [S10T]	0.97
VSSVRKLDFSDTM [A3S]	0.536
VSAVRELDFSDTM [K6E]	0.607
VTAVRKLDFSDTM [S2T]	0.971
VSAVRKLDFSRTM [D11R]	0.466
VSAVRKLDFSWTM [D11W]	-0.256
VHAVRKLDFSDTM [S2H]	1.01
VSAERKLDFSDTM [V4E]	0.161
VSAKRKLDFSDTM [V4K]	1.46

Block 3
Target: Sal-like protein 4, full length isoform B (SALL4, Homo sapiens, UniProt Q9UJQ4-2, residues 1-616)
Method: universal PBM
Molecule type: double-stranded DNA, one strand shown
Matrix: in vitro
Concentration: not given
Setting: 8-mer, flanks averaged, mean of replicates
Reading: higher = stronger binding
Oligonucleotide	E-score
CAAACAGC	-0.0323
AAGAGAGT	-0.132
ACCCCGAG	-0.166
AACTCTGA	0.0469
GGCGGCAC	-0.212
AGCATTGA	0.0248
AGATCTAT	0.214
TCGCGGCA	-0.25
GGTTACAA	0.197
ATGTGCGA	-0.0641
TTCAAAAA	0.225
AACCCTTG	-0.174
AAAGTATG	0.22
TATAAAAA	0.425
ATAAAACG	0.241
CAGGCGCA	-0.246
CATCCATC	-0.051
ATAGAATC	0.217
CATCTTTC	0.12
GCTATTCA	0.14
CACCTCCC	-0.197
AGAAACCT	-0.0896
AGGCTCCG	-0.251

Block 4
Target: Histone acetyltransferase KAT6A, winged helix 1, GST fusion (KAT6A, Homo sapiens, UniProt Q92794, residues 1-85)
Method: protein binding microarray
Molecule type: double-stranded DNA, one strand shown
Matrix: in vitro
Concentration: not given
Setting: 8-mer, flanks averaged, mean of 2 arrays, mostly near background
Baseline: not given
Reading: higher = stronger binding
Target sequence (chain): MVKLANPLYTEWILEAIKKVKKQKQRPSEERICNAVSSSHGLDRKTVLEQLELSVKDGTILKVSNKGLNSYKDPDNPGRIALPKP
Oligonucleotide	E-score
CGATGCAG	-0.0612
CCAATCTC	-0.347
ATACGTAT	0.139
GGCGAGAA	0.0325
GTCTTTCA	0.0027
CAGAAGAG	-0.249
CAAGTCTC	-0.286
ATGCAAGC	-0.111
ACACAGGT	-0.24
AGCAGTGC	-0.026
CCTTTGCA	-0.143
ACGTGCAT	-0.188
CGCTCGGA	0.302
AAGCGTAC	0.0897
AAACAATG	-0.12
CGAGATCA	0.0396
